Experimental data pooled from the literature.
Every numbered part comes from another study and shows a few of its results, in no order. Changes are numbered by the printed parent chain.

Set 1 — technique: RNA Bind-n-Seq; form: RNA; matrix: in vitro; tested at: 365 nM; baseline: no-protein control; direction: higher = stronger binding
Target: RNA binding protein fox-1 homolog 2, RRM domain, GST-SBP tag (RBFOX2, Homo sapiens, UniProt O43251-10, residues 100-194)
Setting: natural RNA segment, single round, ends assumed
Constant ends, left off below: GGGAGUUCUACAGUCCGACGAUC … UGGAAUUCUCGGGUGCCAA
Construct (chain): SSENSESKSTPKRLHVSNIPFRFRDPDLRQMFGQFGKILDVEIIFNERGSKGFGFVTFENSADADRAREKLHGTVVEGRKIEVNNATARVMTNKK
| Strand | RBNS enrichment (R) |
| --- | --- |
| AUACAGAGGCAAGAUUUUAGGAGUUUGAAUUGGUUCUUGUUUGUUCUCAUUCUACAUAUAAUUUUGUUUAUUUCAGAUAAUUUUAUGUAAACAAAUUAAGAGUUAUUCAU | 0.94 |
| UUUUUCUCCCUCUUAAUAUUGAAGAAAUUCCCACAUUUCUCAUUUGGUAAUGGUGUUGUGGCCUCAGAUUUCUUCUAGUAUUUGCUUCUGAUGAAUGAUUAUGGUCUAUA | 0.301 |
| UCCAAAAGAUUUGCCAAAUAACAAGCGCACAUAGUGUGCACUGUUGGAGACUGAAAAUGCCUACUGUAUUGAUGUCUUUAUUCUUUGGUGAAUCAAAAGUUUUAAAAGUA | 0.31 |
| GUGGGCCACACUCUGGCUUUGUGGCUGCUGACAGGGCUUAGCUACACGAACAGCCUGAGAAGUCACUUUGGAACUAAAUUGCCUCGAUUUAUUUUGUGUAAGUAAGGGUU | 0.483 |
| CCGCGUGCUGUGUCACUGCUUUGUUCCAGACACAAACCAGCACGUCUAGGGCCCAGCCCCUCCCCCACCCCGGCAUUUCAGCGUCAAGUGCACUUAGCGGGGUACCCGGC | 0.474 |
| AGGUCCUGAGUUCAGUUCCCAGCAACCACAUGGUGGCUCACACCACCUGUAAUGGGCUCUGACGCCCUCUUCUGAUGUGUGUCUGAAGACAGCUGCAGUGGACUCAUAAG | 0.247 |
| ACUGUACCUACCAUCUGCAUUGAGCAGAAAGACUUUUGUUUUACUGAAGACAAAAGAUGUUUUUAUUUUAGACCCAGAAGAGAGGAGUUUGCUCUGAAUUUGUAAAUAAG | 1.02 |
| CCUCCAAGCCGUUGCAGACAAAGUGAAAGAGGACUCCCAGGUGCCUGCAACCCAGACUCUGCAGAGAGCAGGGCCGAAAGCACUGGAGAAGGUGGAGGAGGUAGAGGAGG | 0.548 |
| UCUGCCAUUUGUGGAAACAACGUAAAUUCUACUUAAGUGUAAACAAGGCAAGCCUCAGACCAGCAAUAAAUUACUCAGUUUGGAUAACAUUAUUUUGUGCAGUUAAUCAA | 0.31 |

Set 2 — technique: DHFR PCA, deep sequencing; matrix: yeast; added: (+)-ABA 710 µM; baseline: wild-type fitted maximum; direction: higher = stronger binding
Target: ABI1, truncated, D143A, DHFR fusion (Arabidopsis thaliana)
Setting: methotrexate growth selection, single substitutions
Starting sequence: PYL1, truncated, DHFR fusion (Arabidopsis thaliana); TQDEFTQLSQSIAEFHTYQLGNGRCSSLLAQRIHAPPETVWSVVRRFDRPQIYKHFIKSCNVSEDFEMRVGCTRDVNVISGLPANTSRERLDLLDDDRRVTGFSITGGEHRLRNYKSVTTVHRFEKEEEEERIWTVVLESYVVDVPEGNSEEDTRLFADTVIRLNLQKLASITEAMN
| Variant | relative binding score [%] |
| --- | --- |
| E109V | 105 |
| F103H | 68.3 |
| A30I | 98.3 |
| I52H | 101 |
| S26A | 98.1 |
| S117A | 88.2 |
| R132G | 117 |
| V136T | 98 |
| E147Q | 103 |
| K168W | 96.7 |
| T101I | 111 |
| Q2P | 94.7 |
| I12F | 85.1 |
| G107M | 81.9 |
| H55A | 105 |

Set 3 — target: CCNE1, cyclin fold, Cln2 fusion (human); technique: yeast growth competition, sequencing; matrix: yeast; setting: weak parent motif; baseline: not given; direction: higher = stronger binding
Starting sequence: DBF4 docking peptide (human); DDIVSKLVFDFVE
| Variant | normalised enrichment score |
| --- | --- |
| F9A | -0.0273 |
| V4A | 0.374 |
| D2A | 0.684 |
| I3A | 0.669 |
| D1A | 0.31 |
| D10A | 0.485 |

Further values, each from its own experiment
| Molecule | target | test | system | conditions | scale | quantity | result |
| --- | --- | --- | --- | --- | --- | --- | --- |
| PhoQ, residues 284 288 289 292 302 303 SCKMEA | PhoP, residues 12 14 15 18 19 LHHSG (Escherichia coli, UniProt P23836) | Sort-seq, item: YFP reporter | E. coli | PhoQ-PhoP variant library, added: 10 µM Mg2+ | baseline: high Mg2+ state, higher = stronger signaling | fold induction | 12.8 |

Repeated from above (set 3):
| Variant | normalised enrichment score |
| --- | --- |
| V4A | 0.374 |
| D2A | 0.684 |
| I3A | 0.669 |
